# Earlier results that unrelated publications cite.
# Protocols differ between the studies behind these lines. Several values in a cell are separate wells, animals, samples, runs or records. ± marks the error that the study gave.
# UniProt Q9GZZ6, sequence (whole entry, looked up): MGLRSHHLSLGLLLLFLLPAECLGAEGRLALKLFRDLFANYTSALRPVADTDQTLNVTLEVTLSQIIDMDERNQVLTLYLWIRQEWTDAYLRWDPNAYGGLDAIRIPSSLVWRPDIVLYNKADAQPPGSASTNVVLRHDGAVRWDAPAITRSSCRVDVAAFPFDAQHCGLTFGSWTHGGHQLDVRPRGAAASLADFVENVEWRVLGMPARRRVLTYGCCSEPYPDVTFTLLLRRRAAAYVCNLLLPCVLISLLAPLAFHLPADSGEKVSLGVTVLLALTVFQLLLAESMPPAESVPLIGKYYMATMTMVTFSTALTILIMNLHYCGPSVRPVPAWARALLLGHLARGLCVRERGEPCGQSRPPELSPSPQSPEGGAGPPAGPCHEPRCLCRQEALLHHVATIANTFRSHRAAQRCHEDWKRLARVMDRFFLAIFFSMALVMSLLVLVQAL
# UniProt Q9UGM1, sequence (whole entry, looked up): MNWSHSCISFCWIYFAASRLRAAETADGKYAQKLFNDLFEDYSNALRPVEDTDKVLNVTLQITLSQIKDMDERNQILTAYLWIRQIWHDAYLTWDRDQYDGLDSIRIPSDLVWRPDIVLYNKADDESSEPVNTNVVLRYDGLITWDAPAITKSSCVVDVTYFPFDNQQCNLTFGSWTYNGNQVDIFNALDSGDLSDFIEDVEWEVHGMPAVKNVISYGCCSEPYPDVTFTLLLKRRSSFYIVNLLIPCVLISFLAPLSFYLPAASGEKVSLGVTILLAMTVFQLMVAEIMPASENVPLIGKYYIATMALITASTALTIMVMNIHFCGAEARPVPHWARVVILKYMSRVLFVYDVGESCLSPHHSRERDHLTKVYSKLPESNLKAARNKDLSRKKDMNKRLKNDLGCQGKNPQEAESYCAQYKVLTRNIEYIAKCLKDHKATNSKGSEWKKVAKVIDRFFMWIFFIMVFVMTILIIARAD
# UniProt P0DW61, sequence (whole entry, looked up): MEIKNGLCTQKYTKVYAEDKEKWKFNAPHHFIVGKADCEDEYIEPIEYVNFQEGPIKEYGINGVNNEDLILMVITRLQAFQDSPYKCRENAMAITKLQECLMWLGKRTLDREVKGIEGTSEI
Compound,tested on,assay,test system,setting,endpoint,result
O=C(NC(=O)c1c(F)cccc1F)Nc1cc(Cl)c(OC(F)(F)C(F)F)c(Cl)c1,CYP2D6,inhibitor,,Tox21 screening,IC50,inactive
CCS(=O)(=O)n1c2c(c3cc(C(=O)N4CCC(C)CC4)ccc31)CN(Cc1ccccc1)C2,CB2 receptor,binding,,,Ki,37 nM
NCc1cc(=O)[nH]o1,GABA-A receptors,,,,Kd,50 nM
CCc1c(C(=O)NN2CCCCC2)nc(-c2ccc(Cl)cc2Cl)n1-c1ccc(Cl)cc1,CB1 receptor,binding,,,Ki,30 nM
CN1CCc2[nH]c3ccccc3c2CC1,"Neuronal acetylcholine receptor; alpha9/alpha10 (Homo sapiens, UniProt Q9GZZ6+Q9UGM1)",inhibitor,,together with: 6 µM acetylcholine,IC50,5.4 ± 0.3 µM
Nc1ncnc2c1ncn2[C@@H]1O[C@@H]2COP(=O)(O)OP(=O)(O)OC[C@H]3O[C@@H](O[C@@H]1[C@@H]2O)[C@H](O)[C@@H]3O,"tad1 (Metaclostridioides mangenotii, UniProt P0DW61)",binding,,,Kd,241 nM
CCCCCOc1ccc(-c2ccc(-c3ccc(C(=O)N[C@H]4C[C@@H](O)[C@@H](O)NC(=O)[C@@H]5[C@@H](O)[C@@H](C)CN5C(=O)[C@H]([C@@H](C)O)NC(=O)[C@H]([C@H](O)[C@@H](O)c5ccc(O)cc5)NC(=O)[C@@H]5C[C@@H](O)CN5C(=O)[C@H]([C@@H](C)O)NC4=O)cc3)cc2)cc1,,,mild hepatic impairment patients,50 mg single dose,volume of distribution,39.4 ± 9.5 L
O=C(NN1CCCCC1)c1nc(-c2ccc(Cl)cc2Cl)n(-c2ccc(Cl)cc2)n1,CB2 receptor,binding,,,Ki,3560 nM
NCCc1ccc(O)c(O)c1,Abcam antibody,,,,Kd,~100000 nM
C[C@]12CC[C@H](O)C[C@H]1CC[C@@H]1[C@@H]2C[C@@H](O)[C@]2(C)[C@@H](C3=CC(=O)OC3)CC[C@]12O,engineered lipocalin,literature value,,,Kd,30.2 nM
COC(=O)[C@@H]1C[C@H](OC(C)=O)C(=O)[C@H]2[C@@]1(C)CC[C@H]1C(=O)O[C@H](c3ccoc3)C[C@]21C,kappa opioid receptor Y313F,,,,Ki,63.3 nM and 37 nM
O=C(O)CC(=O)C(=O)O,citrate synthase H187Q mutant,"binding, fluorescence titration",,20 °C,Kd,~600000 nM
Cc1cccc(C)c1OCC(=O)N[C@@H](Cc1ccccc1)[C@H](O)C(=O)N1CSC(C)(C)[C@H]1C(=O)N[C@H]1c2ccccc2C[C@H]1O,"Gag-Pol polyprotein, protease (gag-pol, Human immunodeficiency virus type 1 group M subtype B, UniProt P04585)",competition ITC,,,Kd,0.14 nM
O=S(=O)([O-])C(F)(F)C(F)(F)C(F)(F)C(F)(F)C(F)(F)C(F)(F)C(F)(F)C(F)(F)F.[K+],CYP2D6,inhibitor,,Tox21 screening,IC50,inactive
NCC1C=Nc2nc(N)[nH]c(=O)c21 (stereo not shown),"class I riboswitch, Can",,,second of two cooperative sites,Kd,461 nM
CN(C)c1ccc2c(=O)c(C(=O)NC3CCCCC3)cn(CCN3CCOCC3)c2n1,CB1 receptor,binding,,,Ki,5600 nM
C[N+](C)(C)[C@@H](Cc1c[nH]c(=S)[nH]1)C(=O)[O-],EgtU substrate-binding domain Y390F,"binding, isothermal titration calorimetry",,,Ka,1.36e+06 ± 700000 M⁻¹
Cc1c(C(=O)NN2CCOCC2)nc(-c2ccc(Cl)cc2Cl)n1-c1ccc(Cl)cc1,CB2 receptor,binding,,,Ki,3300 nM
C[C@@H](NC(=O)[C@@H](N)Cc1ccc(O)cc1)C(=O)NCC(=O)N(C)[C@@H](Cc1ccccc1)C(=O)NCCO,"mu opioid receptor, solubilized",binding,,,Kd,815 nM
